{"data": "Measured values pooled from the literature", "note": "Parts stem from different laboratories: compare values within a part only. Several values in a cell are separate wells, animals, samples, runs or records.", "sequence of UniProt Q6P2M8 (whole entry, looked up)": "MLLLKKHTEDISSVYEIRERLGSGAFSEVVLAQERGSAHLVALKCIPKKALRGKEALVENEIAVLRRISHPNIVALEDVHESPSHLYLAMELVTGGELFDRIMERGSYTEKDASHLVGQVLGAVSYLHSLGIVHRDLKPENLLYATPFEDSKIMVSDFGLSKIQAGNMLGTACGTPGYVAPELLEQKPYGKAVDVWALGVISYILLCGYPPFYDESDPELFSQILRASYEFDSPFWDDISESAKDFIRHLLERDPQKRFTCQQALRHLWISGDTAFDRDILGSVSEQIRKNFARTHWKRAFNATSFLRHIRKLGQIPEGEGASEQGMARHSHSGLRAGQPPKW", "sequence of UniProt O75747 (whole entry, looked up)": "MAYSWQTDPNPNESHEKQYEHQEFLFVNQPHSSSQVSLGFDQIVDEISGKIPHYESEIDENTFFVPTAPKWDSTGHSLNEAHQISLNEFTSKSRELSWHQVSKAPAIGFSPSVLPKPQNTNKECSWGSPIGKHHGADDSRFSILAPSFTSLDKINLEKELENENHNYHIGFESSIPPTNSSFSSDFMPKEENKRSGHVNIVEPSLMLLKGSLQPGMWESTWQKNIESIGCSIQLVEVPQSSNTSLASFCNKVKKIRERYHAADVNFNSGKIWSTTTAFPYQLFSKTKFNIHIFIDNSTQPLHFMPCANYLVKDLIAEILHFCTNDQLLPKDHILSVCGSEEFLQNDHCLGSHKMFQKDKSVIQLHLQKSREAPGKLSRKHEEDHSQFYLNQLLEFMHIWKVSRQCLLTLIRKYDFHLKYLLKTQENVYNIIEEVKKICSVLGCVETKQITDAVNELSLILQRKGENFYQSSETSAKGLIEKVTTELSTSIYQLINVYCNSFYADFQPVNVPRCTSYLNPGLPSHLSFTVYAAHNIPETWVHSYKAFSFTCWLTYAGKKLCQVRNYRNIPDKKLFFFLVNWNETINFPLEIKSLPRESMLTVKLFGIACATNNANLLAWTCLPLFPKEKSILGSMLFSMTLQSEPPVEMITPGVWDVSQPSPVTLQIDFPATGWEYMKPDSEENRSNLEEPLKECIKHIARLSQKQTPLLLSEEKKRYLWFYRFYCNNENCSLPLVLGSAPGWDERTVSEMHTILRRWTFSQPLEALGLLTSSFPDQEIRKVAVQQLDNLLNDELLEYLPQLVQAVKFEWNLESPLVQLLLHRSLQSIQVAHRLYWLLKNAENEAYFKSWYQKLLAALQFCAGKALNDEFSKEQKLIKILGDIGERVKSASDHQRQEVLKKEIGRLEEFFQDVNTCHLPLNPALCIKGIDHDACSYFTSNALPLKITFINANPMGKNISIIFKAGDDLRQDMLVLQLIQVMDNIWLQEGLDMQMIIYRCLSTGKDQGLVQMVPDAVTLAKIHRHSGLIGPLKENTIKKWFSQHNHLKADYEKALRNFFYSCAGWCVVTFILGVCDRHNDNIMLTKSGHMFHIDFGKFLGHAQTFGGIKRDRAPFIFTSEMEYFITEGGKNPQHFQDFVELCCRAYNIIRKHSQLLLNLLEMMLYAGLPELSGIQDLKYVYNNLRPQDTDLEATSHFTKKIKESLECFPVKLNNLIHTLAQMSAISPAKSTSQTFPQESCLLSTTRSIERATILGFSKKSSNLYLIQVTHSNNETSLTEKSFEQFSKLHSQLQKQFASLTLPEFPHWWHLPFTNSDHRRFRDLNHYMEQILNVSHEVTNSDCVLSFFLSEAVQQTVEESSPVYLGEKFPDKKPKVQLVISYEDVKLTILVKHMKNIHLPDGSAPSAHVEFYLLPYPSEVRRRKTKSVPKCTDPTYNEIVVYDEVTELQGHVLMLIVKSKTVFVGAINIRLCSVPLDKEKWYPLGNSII", "sequence of UniProt Q9H1R3 (whole entry, looked up)": "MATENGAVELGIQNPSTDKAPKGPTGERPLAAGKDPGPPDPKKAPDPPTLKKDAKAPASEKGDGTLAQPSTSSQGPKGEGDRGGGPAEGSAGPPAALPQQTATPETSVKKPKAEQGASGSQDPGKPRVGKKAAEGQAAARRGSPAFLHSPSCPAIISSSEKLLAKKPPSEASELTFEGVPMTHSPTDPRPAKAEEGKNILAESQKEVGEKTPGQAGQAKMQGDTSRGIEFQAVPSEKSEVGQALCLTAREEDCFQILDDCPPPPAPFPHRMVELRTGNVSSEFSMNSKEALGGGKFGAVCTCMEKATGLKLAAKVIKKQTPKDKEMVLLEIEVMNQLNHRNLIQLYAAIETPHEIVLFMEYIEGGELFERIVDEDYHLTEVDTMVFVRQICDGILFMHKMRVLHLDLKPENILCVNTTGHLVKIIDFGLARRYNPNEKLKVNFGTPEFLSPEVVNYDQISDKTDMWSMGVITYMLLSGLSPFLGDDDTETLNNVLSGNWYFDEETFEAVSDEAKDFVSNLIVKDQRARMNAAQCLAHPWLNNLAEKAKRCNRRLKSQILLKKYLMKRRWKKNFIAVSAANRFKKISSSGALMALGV"}
{"data": "Set 1", "Compound": "CCC1(c2cccc(-c3cn(C)nc3C)c2)C2=C(Nc3n[nH]cc31)C(F)C(C)(C)CC2=O (single isomer, unassigned)", "concentration": "1 µM"}
{"target": "Myosin light chain kinase 2, skeletal/cardiac muscle (MYLK2, Homo sapiens, UniProt Q9H1R3)", "assay": "kinase binding, KINOMEscan", "scale": "baseline: DMSO control", "remaining binding [%]": 100}
{"target": "Mitogen-activated protein kinase kinase kinase 3 (MAP3K3, Homo sapiens, UniProt Q99759)", "assay": "kinase binding, KINOMEscan", "scale": "baseline: DMSO control", "remaining binding [%]": 96}
{"target": "Serine/threonine-protein kinase Sgk1 (SGK1, Homo sapiens, UniProt O00141)", "assay": "binding, competition with immobilised ligand", "remaining binding [%]": 97}
{"target": "Ephrin type-B receptor 3 (EPHB3, Homo sapiens, UniProt P54753)", "assay": "kinase binding, KINOMEscan", "scale": "baseline: DMSO control", "remaining binding [%]": 100}
{"target": "Serine/threonine-protein kinase MARK1 (MARK1, Homo sapiens, UniProt Q9P0L2)", "assay": "kinase binding, KINOMEscan", "scale": "baseline: DMSO control", "remaining binding [%]": 100}
{"target": "Phosphatidylinositol 3-kinase C2 domain-containing subunit gamma (PIK3C2G, Homo sapiens, UniProt O75747)", "assay": "kinase binding, KINOMEscan", "scale": "baseline: DMSO control", "remaining binding [%]": 76}
{"target": "Myosin light chain kinase, smooth muscle (MYLK, Homo sapiens, UniProt Q15746)", "assay": "binding, competition with immobilised ligand", "remaining binding [%]": 100}
{"target": "Calcium/calmodulin-dependent protein kinase type 1B (PNCK, Homo sapiens, UniProt Q6P2M8)", "assay": "binding, competition with immobilised ligand", "remaining binding [%]": 88}
{"data": "Set 2", "SMILES": "Cn1ncc2c1N(CCCCNC/C=C/C#N)c1cc(Cl)ccc1CC2.O=C(O)/C=C\\C(=O)O", "cell line": "NCI-H292", "technique": "CellTiter-Glo", "time": "72 h", "reading": "higher = more viable cells"}
{"setting": "0.05 µM", "luminescence": "4.28e+06 a.u. and 4.26e+06 a.u. and 3.8e+06 a.u."}
{"setting": "50 µM", "luminescence": "57600 a.u. and 55900 a.u. and 46300 a.u."}
{"setting": "5 µM", "luminescence": "987000 a.u. and 899000 a.u. and 971000 a.u."}
{"setting": "0.5 µM", "luminescence": "4.04e+06 a.u. and 3.72e+06 a.u. and 4.1e+06 a.u."}
{"setting": "0.005 µM", "luminescence": "4.2e+06 a.u. and 4.09e+06 a.u. and 4.14e+06 a.u."}
{"data": "Set 3", "target": "Cyclin-dependent kinase 12, with cyclin K (CDK12, Homo sapiens, UniProt Q9NYV4)", "observed": "kinase activity", "mode": "inhibitor", "technique": "ADP-Glo", "concentration": "0.0082 µM", "sequence of UniProt Q9NYV4 (whole entry, looked up)": "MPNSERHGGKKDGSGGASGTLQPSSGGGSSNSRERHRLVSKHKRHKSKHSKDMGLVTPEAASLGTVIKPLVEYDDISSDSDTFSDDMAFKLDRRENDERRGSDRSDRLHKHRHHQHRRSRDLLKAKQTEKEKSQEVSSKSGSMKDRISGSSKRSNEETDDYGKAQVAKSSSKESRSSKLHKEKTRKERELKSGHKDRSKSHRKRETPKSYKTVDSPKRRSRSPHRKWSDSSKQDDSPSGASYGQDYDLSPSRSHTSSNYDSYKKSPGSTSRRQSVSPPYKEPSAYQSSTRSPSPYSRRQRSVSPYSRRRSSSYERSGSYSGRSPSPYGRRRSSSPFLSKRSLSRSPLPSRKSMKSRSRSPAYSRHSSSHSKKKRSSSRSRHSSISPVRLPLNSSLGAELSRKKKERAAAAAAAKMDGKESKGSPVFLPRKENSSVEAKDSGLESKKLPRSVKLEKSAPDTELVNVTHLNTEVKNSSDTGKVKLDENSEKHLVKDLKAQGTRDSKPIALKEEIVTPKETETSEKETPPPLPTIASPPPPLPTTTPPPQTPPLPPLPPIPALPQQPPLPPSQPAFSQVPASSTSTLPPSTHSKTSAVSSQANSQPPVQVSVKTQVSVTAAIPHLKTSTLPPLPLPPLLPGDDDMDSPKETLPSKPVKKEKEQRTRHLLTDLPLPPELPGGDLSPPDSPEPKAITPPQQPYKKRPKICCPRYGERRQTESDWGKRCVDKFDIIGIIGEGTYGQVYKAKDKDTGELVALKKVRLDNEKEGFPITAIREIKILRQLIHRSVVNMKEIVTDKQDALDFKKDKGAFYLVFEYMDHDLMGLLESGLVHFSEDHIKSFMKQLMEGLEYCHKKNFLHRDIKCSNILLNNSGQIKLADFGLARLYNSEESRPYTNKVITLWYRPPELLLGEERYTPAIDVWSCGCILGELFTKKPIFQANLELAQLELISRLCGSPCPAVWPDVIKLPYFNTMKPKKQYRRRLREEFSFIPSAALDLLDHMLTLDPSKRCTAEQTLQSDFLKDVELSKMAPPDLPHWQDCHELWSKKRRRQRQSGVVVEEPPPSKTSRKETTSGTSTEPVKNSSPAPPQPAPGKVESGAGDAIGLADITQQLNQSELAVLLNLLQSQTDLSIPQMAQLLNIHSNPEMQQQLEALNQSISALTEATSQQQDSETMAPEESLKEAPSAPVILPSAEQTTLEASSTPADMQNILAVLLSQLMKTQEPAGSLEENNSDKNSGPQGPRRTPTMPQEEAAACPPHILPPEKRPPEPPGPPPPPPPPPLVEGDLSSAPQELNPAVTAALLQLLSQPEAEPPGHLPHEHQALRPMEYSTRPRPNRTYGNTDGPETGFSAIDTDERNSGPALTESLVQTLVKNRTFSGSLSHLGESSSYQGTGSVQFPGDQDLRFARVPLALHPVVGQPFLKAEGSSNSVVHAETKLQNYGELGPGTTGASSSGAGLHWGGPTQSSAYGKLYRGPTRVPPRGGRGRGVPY"}
{"SMILES": "CCn1cnc2c(NCc3nc4cc(Cl)c(Cl)cc4[nH]3)nc(N3CCN(Cc4ccncc4)CC3)nc21", "inhibition": "-7.5%"}
{"SMILES": "CCn1cnc2c(NCc3nc4cc(Cl)c(Cl)cc4[nH]3)nc(N3CCN(C(=O)[C@H](C)NC(C)=O)CC3)nc21", "inhibition": "-21.6%"}
{"SMILES": "CCn1cnc2c(NCc3nc4cc(Cl)c(Cl)cc4[nH]3)nc(N3CCN(c4ccccn4)CC3)nc21", "inhibition": "7.4%"}
{"SMILES": "CC(=O)N1CCN(c2nc(NCc3nc4cc(Cl)c(Cl)cc4[nH]3)c3ncn(C(C)C)c3n2)CC1", "inhibition": "-2.8%"}
{"SMILES": "CCn1cnc2c(NCc3nc4cc(Cl)c(Cl)cc4[nH]3)nc(N3CCN(C(=O)c4ccccn4)CC3)nc21", "inhibition": "3.3%"}
{"SMILES": "CCn1cnc2c(NCc3nc4cc(Cl)c(Cl)cc4[nH]3)nc(N3CCN(C(=O)c4ccccc4)CC3)nc21", "inhibition": "-4.5%"}
{"SMILES": "CCn1cnc2c(NCc3nc4cc(Cl)c(Cl)cc4[nH]3)nc(N3CCC(NC(C)=O)CC3)nc21", "inhibition": "2.9%"}
{"SMILES": "CCn1cnc2c(NCc3nc4cc(Cl)c(Cl)cc4[nH]3)nc(N3CCN(C(C)=O)CC3)nc21", "inhibition": "13%"}
{"data": "Set 4", "Structure (SMILES)": "Cn1cc(-c2cccc(CN3CCC4(CC3)COc3c4ccc4c3CN([C@H]3CCC(=O)NC3=O)C4=O)c2)cn1", "target": "Voltage-gated inwardly rectifying potassium channel KCNH2 (KCNH2, Homo sapiens, UniProt Q12809)", "technique": "manual patch clamp", "sequence of UniProt Q12809 (whole entry, looked up)": "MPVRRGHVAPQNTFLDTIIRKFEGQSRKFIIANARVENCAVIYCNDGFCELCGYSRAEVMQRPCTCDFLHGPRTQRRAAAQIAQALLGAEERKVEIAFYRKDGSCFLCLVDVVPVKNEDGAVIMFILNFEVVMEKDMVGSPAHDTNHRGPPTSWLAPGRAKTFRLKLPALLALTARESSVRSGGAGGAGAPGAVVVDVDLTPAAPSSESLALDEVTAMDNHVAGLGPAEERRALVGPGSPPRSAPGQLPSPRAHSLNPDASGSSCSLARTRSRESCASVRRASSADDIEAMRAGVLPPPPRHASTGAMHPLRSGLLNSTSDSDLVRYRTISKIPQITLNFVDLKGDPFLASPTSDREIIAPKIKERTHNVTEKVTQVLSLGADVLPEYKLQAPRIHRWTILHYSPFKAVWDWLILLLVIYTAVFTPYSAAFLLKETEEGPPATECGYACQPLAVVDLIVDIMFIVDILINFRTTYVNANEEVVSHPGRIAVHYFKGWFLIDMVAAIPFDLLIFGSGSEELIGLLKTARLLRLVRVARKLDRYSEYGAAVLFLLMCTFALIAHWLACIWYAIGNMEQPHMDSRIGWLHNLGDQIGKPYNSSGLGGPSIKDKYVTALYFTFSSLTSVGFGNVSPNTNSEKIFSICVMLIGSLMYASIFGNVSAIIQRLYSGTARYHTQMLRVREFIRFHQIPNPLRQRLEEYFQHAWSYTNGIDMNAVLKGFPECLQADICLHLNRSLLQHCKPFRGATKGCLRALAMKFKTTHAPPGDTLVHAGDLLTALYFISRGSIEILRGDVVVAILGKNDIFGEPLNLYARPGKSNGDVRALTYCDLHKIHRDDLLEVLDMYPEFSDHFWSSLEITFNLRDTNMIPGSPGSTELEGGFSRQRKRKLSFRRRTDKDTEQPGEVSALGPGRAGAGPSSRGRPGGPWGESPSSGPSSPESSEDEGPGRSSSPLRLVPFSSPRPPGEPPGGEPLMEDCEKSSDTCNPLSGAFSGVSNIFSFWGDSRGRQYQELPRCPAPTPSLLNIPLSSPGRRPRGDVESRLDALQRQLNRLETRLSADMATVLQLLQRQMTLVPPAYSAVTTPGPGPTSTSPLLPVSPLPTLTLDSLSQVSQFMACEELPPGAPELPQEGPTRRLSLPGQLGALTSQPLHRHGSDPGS"}
{"assay": "potassium current", "setting": "100 µM, cloudy working solution", "inhibition": "65.3% and 73.2%"}
{"assay": "potassium current", "setting": "88.62 µM", "inhibition": "65.3% and 73.2%"}
{"assay": "hERG current", "setting": "32.25 µM", "inhibition": "43.4%"}
{"assay": "potassium current, inhibitor", "setting": "9.95 µM, 9.95", "inhibition": "16.5% and 21.2%"}
{"note": "A few entries again (set 2):"}
{"setting": "0.05 µM", "luminescence": "4.28e+06 a.u. and 4.26e+06 a.u. and 3.8e+06 a.u."}
{"setting": "50 µM", "luminescence": "57600 a.u. and 55900 a.u. and 46300 a.u."}
{"setting": "5 µM", "luminescence": "987000 a.u. and 899000 a.u. and 971000 a.u."}
{"setting": "0.5 µM", "luminescence": "4.04e+06 a.u. and 3.72e+06 a.u. and 4.1e+06 a.u."}
